Measurements of several laboratories.
Values joined by “and” are separate records of one study, mostly repeats; a detail may differ. Numbers after ± are the reported error.
Sequence of UniProt P33261 (whole entry, looked up): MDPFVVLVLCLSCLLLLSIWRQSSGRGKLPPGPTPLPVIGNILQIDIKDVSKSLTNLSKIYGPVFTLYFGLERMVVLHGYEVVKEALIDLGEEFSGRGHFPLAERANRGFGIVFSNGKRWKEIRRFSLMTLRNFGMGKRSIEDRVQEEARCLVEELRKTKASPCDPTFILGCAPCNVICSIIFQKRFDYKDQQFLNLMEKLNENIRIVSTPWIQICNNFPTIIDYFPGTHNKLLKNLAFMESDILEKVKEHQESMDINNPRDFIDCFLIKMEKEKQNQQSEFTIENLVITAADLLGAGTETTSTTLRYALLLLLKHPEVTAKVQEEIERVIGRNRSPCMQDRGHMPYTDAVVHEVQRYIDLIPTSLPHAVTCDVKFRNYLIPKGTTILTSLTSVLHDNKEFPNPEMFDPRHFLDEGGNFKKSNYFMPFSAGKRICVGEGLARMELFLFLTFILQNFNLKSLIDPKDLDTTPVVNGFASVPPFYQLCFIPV

| Structure (SMILES) | target or system | test | system | conditions | how to read | quantity | value |
| --- | --- | --- | --- | --- | --- | --- | --- |
| COC1CN([C@H]2CC[C@H]([C@@]3(C)Oc4c(Cl)cc(C(=O)NCc5c(SC)cc(C)[nH]c5=O)c(C)c4O3)CC2)C1 | – | RNA-seq, measured: TCF7L2 mouse homolog | mouse, HT-1376 xenograft, whole blood | dose not given | baseline: vehicle | log2 fold change | 0.757 |
| COc1cccc(OC)c1-c1cc(C(=O)NC2(C(=O)O)C3CC4CC(C3)CC2C4)nn1-c1ccc(C(=O)N(C)CCOCCOCCN(C)C(=O)[C@H](CCCCNC(=O)[C@H](CC(C)C)NC(=O)C2OC2C(=O)O)NC(=O)CN2CCN(CC(=O)[O-])CCN(CC(=O)[O-])CCN(CC(=O)[O-])CC2)cc1C(C)C.[177Lu+3] (mixture of isomers) | – | – | mouse, HT-29 xenograft | 24 h post injection, biodistribution | baseline: tumour over brain uptake | tumour-to-brain ratio | 72.6 |
| Cc1nn(-c2nc3c(F)cc(F)cc3s2)c(O)c1C(c1ccc(C(F)(F)F)cc1)c1c(C)nn(-c2nc3c(F)cc(F)cc3s2)c1O | – | – | ICR mouse, plasma | oral, 50 mg/kg | – | AUC(all) | 361 µg·h/mL and 353 µg·h/mL and 381 µg·h/mL |
| CC(C)C[C@H](NC(=O)[C@H](CCCN)NC(=O)CNC(=O)[C@@H](NC(=O)[C@H](C)NC(=O)[C@@H]1CSCSC[C@H](NC(=O)CC[C@H](N)C(=O)O)C(=O)N[C@@H](CC(N)=O)C(=O)N[C@@H]([C@@H](C)O)C(=O)N[C@@H](C)C(=O)N[C@@H]([C@@H](C)O)C(=O)N1)[C@@H](C)O)C(=O)N[C@@H](C)C(=O)N[C@@H](CCC(=O)O)C(=O)N[C@@](C)(Cc1ccccc1)C(=O)N[C@@H](CC(C)C)C(=O)N[C@H](C(=O)N[C@@H](CCCNC(=N)N)C(=O)N[C@@H](CO)C(=O)N[C@@H](CO)C(=O)N[C@@H](CC(N)=O)C(=O)N(C)[C@@H](CC(N)=O)C(=O)N[C@@H](Cc1ccccc1)C(=O)NCC(=O)N1CCC[C@H]1C(=O)N[C@@H](CCCCNC(=O)CC[C@H](NC(=O)CC[C@H](NC(=O)CCCCCCCCCCCCCCCCCCC(=O)O)C(=O)O)C(=O)O)C(=O)N[C@@H](CC(C)C)C(=O)N1CCC[C@H]1C(=O)N1CCC[C@H]1C(=O)N[C@H](C(=O)N[C@@H](CCC(=O)O)C(=O)N[C@H](C(=O)NCC(=O)N[C@@H](CO)C(=O)N[C@@H](CC(N)=O)C(=O)N[C@H](C(=O)N[C@@H](Cc1ccc(O)cc1)C(N)=O)[C@@H](C)O)C(C)C)[C@@H](C)O)C(C)C | – | – | healthy human, plasma | subcutaneous, 12 mg single dose, geometric LS mean | – | AUC(0-tlast) | 605 µg·h/mL |
| CSCC[C@H](N)C(=O)N[C@@H](CO)C(=O)N[C@H](C(=O)N[C@@H](C)C(=O)NCC(=O)N[C@@H](CC(C)C)C(=O)N[C@@H](CCCCN)C(=O)N[C@@H](CCCCN)C(=O)N[C@@H](CCC(N)=O)C(=O)N[C@@H](Cc1c[nH]c2ccccc12)C(=O)N[C@@H](Cc1c[nH]cn1)C(=O)N[C@@H](CCCCN)C(=O)N[C@@H](C)C(=O)N[C@H](C(=O)N[C@@H](CCC(N)=O)C(=O)N[C@@H](CCCCN)C(=O)N[C@H](C(=O)N[C@@H](CO)C(=O)N[C@@H](CCC(=O)O)C(=O)N[C@@H](CCCCN)C(=O)N[C@H](C(=O)NCC(=O)NCC(=O)N[C@@H](C)C(N)=O)C(C)C)C(C)C)[C@@H](C)O)C(C)C | – | circular dichroism | ~60% TFE | – | – | fractional helicity | 63.8% |
| CCCCN1C(=O)c2cccc3c(NCCCCN4CCOCC4)ccc(c23)C1=O | – | – | dichloromethane | – | – | fluorescence lifetime | 10.4 ns |
| C=CC(=O)Nc1cc(Nc2nccc(-c3cn(C)c4ccccc34)n2)c(OC)cc1N(C)CCNC | – | storage stability | human plasma | 24 h, on ice, low QC level | – | recovery | 89.9% |
| CCC(=O)N(C)c1ccc(Cl)c(Cl)c1 | – | – | female C57BL/6 mice | oral, 10 mg/kg, 0.5 h | – | plasma concentration | 131 ng/mL |
| Cc1nc(N)nc2c1C(=O)N[C@@H](c1ccc(F)cc1-c1cccc(O[11CH3])n1)C2 | – | ex vivo biodistribution | mice, MDA-MB-231 subcutaneous xenograft, pancreas | 60 min post-injection, baseline, vehicle pre-treatment | – | SUV | 2.8 ± 0.1 |
| [123I]c1ccc2nc(-c3ccc(-n4ccnn4)nc3)cn2c1 | – | – | Wistar rat, pancreas | intravenous, 24 h | – | tissue uptake | not detected |
| CCCC[C@H](OC(C)=O)c1ccccc1C(=O)O | – | – | Sprague-Dawley rats, both sexes, whole blood | intravenous, 5 mg/kg single dose | – | MRT(0-inf) | 3.4 ± 1.5 h |
| CCN(CC)c1ccc2c(c1)O[B-]1(c3ccc(C)cc3)OC(=O)C(c3ccccc3)=N[N+]1=C2 (centres unmarked) | – | – | toluene | – | – | molar absorption coefficient | 59000 M⁻¹ cm⁻¹ |
| CCCCN1C(=O)c2cccc3c(NCCCN4CCOCC4)ccc(c23)C1=O | – | – | DMSO | – | – | molar extinction coefficient | 5270 M⁻¹ cm⁻¹ |
| C=C(NC(=O)c1csc(-c2nc3c(cc2O)-c2nc(cs2)C(=O)NC(C(C)O)C(=O)NC(=C(C)OC)c2nc(cs2)C(=O)NC2c4nc(cs4)C(=O)NC(COC(=O)c4c5c6c(cccc6n4O)COC(=O)C(OC4CC(C)(O)C(N(C)C)C(C)O4)C2OC5)c2nc-3cs2)n1)C(N)=O (centres unmarked) | – | – | Sprague-Dawley rat, both sexes, plasma | intravenous infusion, 6 mg/kg, multiple doses, day 7 | – | half-life | 7.16 h |
| CC(C)[C@H](NC(=O)[C@H](Cc1c[nH]c2ccccc12)NC(=O)[C@H](CCCNC(=N)N)NC(=O)[C@H](CCCNC(=N)N)NC(=O)[C@@H](NC(=O)[C@@H](NC(=O)[C@H](CCCNC(=N)N)NC(=O)[C@@H](NC(=O)[C@@H](NC(=O)[C@H](CCCNC(=N)N)NC(=O)[C@H](CCCNC(=N)N)NC(=O)[C@@H](NC(=O)[C@H](Cc1c[nH]c2ccccc12)NC(=O)[C@H](CCCNC(=N)N)NC(=O)[C@H](CCCNC(=N)N)NC(=O)[C@@H](NC(=O)[C@H](CCCNC(=N)N)NC(=O)[C@H](CCCNC(=N)N)NC(=O)[C@@H](NC(=O)[C@H](Cc1c[nH]c2ccccc12)NC(=O)[C@H](CCCNC(=N)N)NC(=O)[C@@H](N)CCCNC(=N)N)C(C)C)C(C)C)C(C)C)C(C)C)C(C)C)C(C)C)C(C)C)C(=O)N[C@@H](CCCNC(=N)N)C(=O)N[C@@H](CCCNC(=N)N)C(=O)O | – | dipstick | CD1 mouse, urine | intravenous, 15 mg/kg, 16 h, [14C]-labelled compound | – | protein | 30 mg/dL |
| CC[C@H](C)[C@H](NC(=O)C[C@H](NC(=O)CN1CCN2CCN(CC1)CC(=O)[O][Al]([18F])[O]C(=O)C2)C(=O)O)C(=O)N[C@H]1CCc2cccc3c2N(C1=O)[C@H](C(=O)NCc1cn[nH]n1)C3 | MC-38 tumour model | – | host not given, stomach | 30 min, tumour-bearing | – | tracer uptake | 0.78 %ID/g |
| C=CC(=O)Nc1cc(Nc2nccc(-c3c[nH]c4ccccc34)n2)c(OC)cc1N(C)CCN(C)C | – | storage stability | human dried blood spot | 2 h, on ice, MQC level | – | recovery | 87.6% |
| C=CC(=O)Nc1cccc(Cn2ncc3cnc(Nc4cnn(CCOC)c4)nc32)c1 | YANK3 human | binding, KINOMEscan | – | 100 nM | lower = stronger binding | percent of control | 100% |

| Structure (SMILES) | target or system | test | system | conditions | how to read | quantity | value |
| --- | --- | --- | --- | --- | --- | --- | --- |
| CC[C@H](C)[C@H](NC(=O)[C@H](Cc1ccc(O)cc1)NC(=O)[C@@H](NC(=O)[C@H](CCCNC(=N)N)NC(=O)[C@@H](N)CC(=O)O)C(C)C)C(=O)N[C@@H](Cc1c[nH]cn1)C(=O)N1CCC[C@H]1C(=O)O | – | LC-MS/MS | Sprague-Dawley rat, plasma | sc, 10 mg/kg/day, day 27 | baseline: day 0 | Cmax increase | ~10 fold |
| CC(C)(O)c1ncc([S@](N)(=O)=NC(=O)Nc2c3c(cc4c2CCC4)CCC3)s1 | – | – | human plasma | -20 °C or below | – | freeze-thaw stability | 5 cycles |
| CNC(=O)C1CCCN(C(=O)C2CC3CCC2N3C(=O)[C@@H]2C[C@@H](O)CN2C(=O)NCc2cccc(Cl)c2F)C1 (mixture of isomers) | Cytochrome P450 2C19 (CYP2C19, Homo sapiens, UniProt P33261) | enzyme activity, inhibitor, time-dependent inhibition | – | 0.0686 µM, preincubated without NADPH | baseline: negative control | remaining activity | 83.7% |
| O=C(Nc1cnccc1-c1ccc([18F])cc1)c1ccnc(NC(=O)C2CC2)c1 | – | ex vivo gamma counting | FVB/NJ mice, both sexes, right kidney | intravenous, 120 min, together with: tariquidar 15 mg/kg iv | – | mean SUV | 0.92 |
| Cc1n[nH]c(C)c1CCCOc1cc(C(=O)NCCCCC(NC(=O)CN2CCN(CC(=O)[O-])CCN(CC(=O)[O-])CCN(CC(=O)[O-])CC2)C(=O)NCC2CCC(C(=O)NC(Cc3ccc4ccccc4c3)C(=O)NCCCCC(NC(=O)NC(CCC(=O)O)C(=O)O)C(=O)O)CC2)ccc1F.[68Ga+3] (centres unmarked) | – | micro-PET/CT | mouse 22Rv1 xenograft, tumour | 4 h post-injection | – | mean tumour uptake | 12.3 ± 0.9 %ID/g |
| CCCCN1C(=O)c2cccc3c(NCCCCCCCCN4CCOCC4)ccc(c23)C1=O | – | – | dichloromethane | – | – | molar extinction coefficient | 10200 M⁻¹ cm⁻¹ |
| CC(=O)N([O-])CCCCCNC(=O)CCC(=O)N([O-])CCCCCNC(=O)CCC(=O)N([O-])CCCCCN.[89Zr+4] | – | radio-TLC | aqueous buffer | 1 d, pH 5, 37 °C, 89Zr-labelled complex, together with: DTPA 100-fold excess | – | intact complex | 99.9 ± 0.1% |
| Nc1ncc(-c2cc(-c3cnn(CC(F)(F)F)c3)ncc2F)nc1C(=O)NC1CNCC(F)C1 (centres unmarked) | YANK3 | KINOMEscan | – | 1 µM | baseline: DMSO control | remaining binding | 79% |
| COCC1CN(C2CCN(c3cc(OC)c(Nc4ncc(Br)c(Nc5ccc6c(c5P(C)(C)=O)OCCO6)n4)cc3C)CC2)C1 | – | – | EGFR-mutant NSCLC patients, plasma | oral, 60 mg multiple doses, geometric mean | – | Cmin | 438 ng/mL |
| O=C(Nc1cnccc1-c1ccc([18F])nc1)c1ccnc(NC(=O)C2CC2)c1 | – | PET imaging | FVB/NJ mice, both sexes, brain | intravenous, 120 min post-injection, P-gp inhibited, together with: tariquidar 15 mg/kg iv, 2 h before | – | SUV | 0.071 |
| CCC1(CC)CC(=O)N(C2CCOc3ccc(C(=O)NC4CC(C)(C)Oc5ccccc54)cc32)C(=N)N1 (centres unmarked) | – | metabolic stability | dog, hepatocytes | – | – | hepatocyte CLint | 18.4 µL/min/10⁶ cells |
| CC[C@H](C)[C@@H]1NC(=O)[C@H](Cc2ccc(O)cc2)NC(=O)CCCSC[C@@H](C(=O)N(CC(=O)N[C@@H](CC(C)C)C(=O)NCC(N)=O)Cc2ccc(F)cc2)NC(=O)[C@H](CC(N)=O)NC(=O)[C@H](CCC(N)=O)NC1=O | – | – | healthy human, plasma | intranasal, 400 µg every 3 h, after first dose | – | Cmax | 0.229 ng/mL |
| CCc1cnc(NC(=O)c2cc(S(=O)(=O)N3CCOCC3)ccc2N(C)C2CCCC2)s1 | – | – | mouse | 10 mg/kg, 3 doses | – | mean corpuscular volume | 55.7 fL |
| Cc1cc(-c2ccc(C(=O)[C@@H]3CCCC[C@H]3C(=O)Nc3cnn4c3C(=O)NCC4)cc2)[nH]n1 | – | – | human, faeces | oral, 200 mg, 0-288 h | baseline: dose | cumulative recovery of radioactivity | 79.3% |
| CCCCN1C(=O)c2cccc3c(NCCCCCN4CCOCC4)ccc(c23)C1=O | – | – | DMF | – | – | molar extinction coefficient | 8680 M⁻¹ cm⁻¹ |
| Fc1ccc(/C=N/Nc2nnc(N/N=C/c3ccc(F)cc3)c3ccccc23)cc1 | – | haemolysis | human | 10 mM, 45 min | – | haemolysis | 8.4% |
| CCN(CC)CC#CCNc1ccnc2cc(Cl)ccc12 | Salmonella typhimurium | mini-Ames test | TA97a | 125.0 µg/well, with rat liver S9 | – | revertants per well | 14 |

Repeated from above:
| Structure (SMILES) | target or system | test | system | conditions | how to read | quantity | value |
| --- | --- | --- | --- | --- | --- | --- | --- |
| CCC1(CC)CC(=O)N(C2CCOc3ccc(C(=O)NC4CC(C)(C)Oc5ccccc54)cc32)C(=N)N1 (centres unmarked) | – | metabolic stability | dog, hepatocytes | – | – | hepatocyte CLint | 18.4 µL/min/10⁶ cells |
| CC[C@H](C)[C@@H]1NC(=O)[C@H](Cc2ccc(O)cc2)NC(=O)CCCSC[C@@H](C(=O)N(CC(=O)N[C@@H](CC(C)C)C(=O)NCC(N)=O)Cc2ccc(F)cc2)NC(=O)[C@H](CC(N)=O)NC(=O)[C@H](CCC(N)=O)NC1=O | – | – | healthy human, plasma | intranasal, 400 µg every 3 h, after first dose | – | Cmax | 0.229 ng/mL |
| CCc1cnc(NC(=O)c2cc(S(=O)(=O)N3CCOCC3)ccc2N(C)C2CCCC2)s1 | – | – | mouse | 10 mg/kg, 3 doses | – | mean corpuscular volume | 55.7 fL |
| Cc1cc(-c2ccc(C(=O)[C@@H]3CCCC[C@H]3C(=O)Nc3cnn4c3C(=O)NCC4)cc2)[nH]n1 | – | – | human, faeces | oral, 200 mg, 0-288 h | baseline: dose | cumulative recovery of radioactivity | 79.3% |
| CCCCN1C(=O)c2cccc3c(NCCCCCN4CCOCC4)ccc(c23)C1=O | – | – | DMF | – | – | molar extinction coefficient | 8680 M⁻¹ cm⁻¹ |
